Published values collected from several papers.
Compare with care: the assays were run in different laboratories. Numbers after ± are the reported error.

SMILES | tested on | assay | test system | setting | endpoint | result
O=C(NC1CCN(c2ncnc3[nH]cnc23)CC1)c1cccc(NS(=O)(=O)c2ccc([N+](=O)[O-])cc2)c1 | A549-ACE2 | – | – | 0.823 µM | viability | 106%
CN(C(=O)Cc1c(Cl)cccc1Cl)[C@@H]1CCCC[C@H]1N1CCCC1 | – | – | human liver microsomes | 0.5 µM, added: NADPH | intrinsic clearance | 3.7 mL/min/g
CC(=O)N[C@H]1CC(=O)NCCCC[C@@H](C(N)=O)NC(=O)[C@@H](Cc2ccccc2)NC(=O)[C@@H]2CCCN2C(=O)[C@H](CC(=O)O)NC(=O)[C@H](CC(=O)O)NC(=O)[C@H](Cc2ccc(OP(=O)(O)O)cc2)NC(=O)[C@H](CCC(=O)O)NC1=O | – | PAMPA | – | 8 h | log Pe | -5.24
NCCNCCSc1ccccc1 | – | – | Swiss Albino mouse, female | oral, 400 mg/kg, single dose, non-compartmental | apparent volume of distribution (Vz/F) | 214 L/kg
CC(C)[C@H](N)C(=O)N[C@@H](Cc1ccc(O)cc1)C(=O)N[C@@H](Cc1ccc(O)cc1)C(=O)N[C@@H](CCCNC(=N)N)C(=O)O | – | – | Actrapid formulation | pH 7 | solubility | ≥ 1000 µM
CN(C(=O)Cc1cccc(Cl)c1)[C@@H]1CCCC[C@H]1N1CCCC1 | – | – | human liver microsomes | 0.5 µM, added: NADPH | intrinsic clearance | 0.6 mL/min/g
CC(C)(C)N1CCC(NC(=O)c2ccc(C(F)(F)F)cc2Cl)CC1 | – | – | human plasma | 6 h | remaining compound | 98.2%
CC(C)C[C@@H](NC(=O)[C@H](NC(=O)[C@H]1CCCN1)[C@H](C)O)C(=O)N[C@H](Cc1c[nH]cn1)C(=O)N[C@@H](C(=O)N[C@H](Cc1c[nH]cn1)C(=O)N[C@H](CC(N)=O)C(=O)N[C@H](CCCNC(=N)N)C(=O)N[C@H](CCCNC(=N)N)C(=O)N[C@H](CCCNC(=N)N)C(=O)N[C@H](CCCNC(=N)N)C(=O)N[C@H](CCCNC(=N)N)C(N)=O)[C@H](C)O | – | – | healthy human, plasma | oral, 1 160 mg daily, day 1, mean | AUC(0-24h) | 35.6 ng·h/mL
CN1CCCC(CSc2nc(N)c3c4c(sc3n2)CC(c2ccccc2)CC4)C1 (stereo not drawn) | – | – | mouse liver microsomes | 30 min | metabolized compound | 75 ± 3%
COc1ccc(S(=O)(=O)Nc2cccc(C(=O)NC3CCN(c4ncnc5[nH]cnc45)CC3)c2)cc1 | A549-ACE2 | – | – | 0.01016 µM | viability | 100%
CN(C(=O)Cc1cccc2ccccc12)[C@@H]1CCCC[C@H]1N1CCCC1 | – | – | human liver microsomes | 0.5 µM, added: NADPH | intrinsic clearance | 2.3 mL/min/g
NC(=O)CC[C@H](NC(=O)[C@H](CCC(N)=O)NC(=O)[C@H](CC(N)=O)NC(=O)[C@H](CC(N)=O)NC(=O)CNC(=O)Cc1ccc2ccccc2c1)C(=O)N[C@@H](CC(N)=O)C(=O)N[C@@H](Cc1ccc(OP(=O)(O)O)cc1)C(=O)O | – | TEM | ALP-formed hydrogel in PBS | 0.5 wt %, pH 7.4 | fiber width | 6 ± 2 nm

For quick reference, copied from above:
SMILES | tested on | assay | test system | setting | endpoint | result
NC(=O)CC[C@H](NC(=O)[C@H](CCC(N)=O)NC(=O)[C@H](CC(N)=O)NC(=O)[C@H](CC(N)=O)NC(=O)CNC(=O)Cc1ccc2ccccc2c1)C(=O)N[C@@H](CC(N)=O)C(=O)N[C@@H](Cc1ccc(OP(=O)(O)O)cc1)C(=O)O | – | TEM | ALP-formed hydrogel in PBS | 0.5 wt %, pH 7.4 | fiber width | 6 ± 2 nm
